Published values of several laboratories.
Numbered parts are unrelated; each lists some results of a single study. Substitutions count along the parent as printed.

Set 1
Target: UBE2Q2 UBC core domain (UniProt Q8WVN8)
Sequence of UniProt Q8WVN8 (whole entry, looked up): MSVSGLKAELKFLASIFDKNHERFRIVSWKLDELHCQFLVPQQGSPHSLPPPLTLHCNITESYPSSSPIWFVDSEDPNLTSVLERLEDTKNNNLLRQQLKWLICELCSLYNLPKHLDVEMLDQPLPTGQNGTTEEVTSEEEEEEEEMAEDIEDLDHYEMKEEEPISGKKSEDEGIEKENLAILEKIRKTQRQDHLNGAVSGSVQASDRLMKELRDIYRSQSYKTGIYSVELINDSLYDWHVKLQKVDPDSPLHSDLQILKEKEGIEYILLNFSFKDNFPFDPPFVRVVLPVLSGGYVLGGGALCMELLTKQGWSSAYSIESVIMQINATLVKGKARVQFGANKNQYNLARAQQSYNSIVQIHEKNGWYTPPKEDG
Method: yeast two-hybrid
Matrix: yeast
Setting: mostly zero background
Baseline: not given
Direction: higher = stronger interaction
Endpoint: lacZ reporter activity
B1: RLIM RING domain (UniProt Q9NVW2); chain SFGENDALKTCSVCITEYTEGNKLRKLPCSHEYHVHCIDRWLSENSTCPICRRAVLASGNRE
B2: MEX3B RING domain (UniProt Q6ZN04); chain SGLRRKGSRDCSVCFESEVIAALVPCGHNLFCMECANRICEKSEPECPVCHTAVTQAIRIF
B3: RNF152 RING domain (UniProt Q8N8N0); chain ETLSQDSLLECQICFNYYSPRRRPKLLDCKHTCCSVCLQQMRTSQKDVRCPWCRGVTKLPPGFS
B4: MKRN2 RING domain (UniProt Q9H000); chain FAFQASQDKVCSICMEVILEKASASERRFGILSNCNHTYCLSCIRQWRCAKQFENPIIKSCPECRVISEFVIPSV
B5: RNF183 RING domain (UniProt Q96D59); chain EQQGRELEAECPVCWNPFNNTFHTPKMLDCCHSFCVECLAHLSLVTPARRRLLCPLCRQPTVLASGQP
B6: TRIM22 RING domain (UniProt Q8IYM9); chain VKVDIEKEVTCPICLELLTEPLSLDCGHSFCQACITAKIKESVIISRGESSCPVCQTRFQPGNLRP
B7: TRIM26 RING domain (UniProt Q12899); chain PLRSLEEEVTCSICLDYLRDPVTIDCGHVFCRSCTTDVRPISGSRPVCPLCKKPFKKENIRP
B8: RNF31 RING domain (UniProt Q96EP0); chain AFLRRLLAQECAVCGWALPHNRMQALTSCECTICPDCFRQHFTIALKEKHITDMVCPACGRPDLTDDTQLL
B9: TRIM60 RING domain (UniProt Q495X7); chain ALVNLQEESSCPICLEYLKDPVTINCGHNFCRSCLSVSWKDLDDTFPCPVCRFCFPYKSFRR
FVKTVEDKYKCEKCHLVLCSPKQTECGHRFCESCMAALLSSSSPKCTACQESIVKDKVF (TRAF3 RING domain (UniProt Q13114)): 0
QVQSRTKIEECVVCSDKKAAVLFQPCGHMCACENCANLMKKCVQCRAVVERRVPFI (MIB1 RING domain (UniProt Q86YT6)): 0
B1 (RLIM RING domain): 0
B2 (MEX3B RING domain): 0
B3 (RNF152 RING domain): 0
B4 (MKRN2 RING domain): 0
B5 (RNF183 RING domain): 0
B6 (TRIM22 RING domain): 0
B7 (TRIM26 RING domain): 0
AEADPLGRFTCPVCLEVYEKPVQVPCGHVFCSACLQECLKPKKPVCGVCRSALAPGVRAV (RNF114 RING domain (UniProt Q9Y508)): 0
B8 (RNF31 RING domain): 0
YCEMGSTFQLCKICAENDKDVKIEPCGHLMCTSCLTAWQESDGQGCPFCRCEIKGTEPII (CBLB RING domain (UniProt Q13191)): 0
B9 (TRIM60 RING domain): 0
MNDVLENELQCIICSEYFIEAVTLNCAHSFCSYCINEWMKRKIECPICRKDIKSKTYSL (RNF8 RING domain (UniProt O76064)): 0

Set 2
Target: ABI1, truncated, D143A, DHFR fusion (Arabidopsis thaliana)
Method: DHFR PCA, deep sequencing
Matrix: yeast
Setting: methotrexate growth selection, single substitutions
With: (+)-ABA 1.4 µM
Baseline: wild-type fitted maximum
Direction: higher = stronger binding
Endpoint: relative binding score
Parent: PYL1, truncated, DHFR fusion (Arabidopsis thaliana); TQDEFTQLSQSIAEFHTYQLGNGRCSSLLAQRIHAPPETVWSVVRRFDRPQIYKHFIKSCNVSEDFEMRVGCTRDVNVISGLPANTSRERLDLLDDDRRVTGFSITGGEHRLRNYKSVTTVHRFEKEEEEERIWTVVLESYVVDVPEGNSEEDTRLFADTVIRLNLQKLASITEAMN
I162T: 13.7%
T160A: 11%
R88Q: 62.4%
S59E: 57.5%
G21D: 52.8%
S27F: -13.4%
S140G: 9.84%
Q19R: 58.3%
V161S: 14%
V145D: -16.9%
T135C: 37.4%
R74K: 1.58%
S150N: 39.9%
N177M: 56%

Set 3
Target: RNA binding protein fox-1 homolog 2, RRM domain, GST-SBP tag (RBFOX2, Homo sapiens, UniProt O43251-10, residues 100-194)
Method: RNA Bind-n-Seq
Molecule type: RNA
Matrix: in vitro
Tested at: 365 nM
Setting: natural RNA segment, single round, ends assumed
Baseline: no-protein control
Direction: higher = stronger binding
Endpoint: RBNS enrichment (R)
Constant ends, left off below: GGGAGUUCUACAGUCCGACGAUC … UGGAAUUCUCGGGUGCCAA
Residues (chain): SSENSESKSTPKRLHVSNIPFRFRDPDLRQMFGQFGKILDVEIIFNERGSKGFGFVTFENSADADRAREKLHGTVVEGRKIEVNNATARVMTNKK
GCUCACAGAGAUCAGAACUCUGUGUAGAUCACACUGGUCUAGAACUCAGAGUCUGCCUGCAUCUGUCUCCUAGUGCUGGGAUUAAAGGUGUGAGCCAUUAUACCUGGCUU: 1.73
UGCUUGAGGCUAGCCCAGUGAAAAAAACCAGAGACUCAUGUUUCCAGGGGUCAGUCUGUCAGGCAGGAAGGACCCAGGAUUUGAACCCAGCUUCAGUGUGCAGGCUCUGA: 0.461
GCAUGUCUCCCUGCCACCUGUCACCCAGGAGCUUUGACAUUAUUUCUGCUGCCAUACUCCCCUAGAACUGCUCGAACCCCCGUGCUUUUCUUUUUCUUCAUCUCCUUUUG: 1.44
GGGAGGUCUAAUCUAGAUAUCGACUUGUUUUUGCACAUGUUUCCUCUAGUUCUUUGUUCAUAGCCCAGUAGACCUUGUUACUUCUGAGGUAAGUUAAGUAAGUUGAUUCG: 0.678
AAGAUUGUCCUGUGACUUCUGCCCAUUACCUGAGGCCUGUGGAAAUAAACCUUUAUGUACUUAAAAUUAUACAGAAAAUAGAAUAAAGUUAAUACCAAACUUGUUUAGUU: 0.538
GGACACGUGUAGUGUGUUAAGAUGUGCUGAUGGAAACACUAUCUUCAAAACUAAAAAUCAGCCACAGUUGAAUGCUACAAAAGACAUUUAAAGAUUUUAUUUAAACUGUU: 0.509
AAGGUGGGCAGUCCAGGUUACAGUUGAUGAAGGAAACAGUGCCUGUCUGCCUCUCAUGUGUGACCCCAAGGCAGCCAGGCUGUCACUGCUGCUGUCACAGGCUGACACCU: 0.628
CAGUUUCAUUAUUUUGGAUGAUGAUGCAGAGACUCAUGUUAAUGAACUCGAAAAUGGUGUUGCUUCAUGUACUUUGAAAACCAAUCAGGUGUUUCCUGCGCUACUACUUG: 0.404
GGCAUAUAUAAACAUGUGUAUGUGCAAUAUAUCGAUAUAGAAUUCUGCCAAAAAUCAAGGUUUAAAAAGCUGAGGCUUGUAUUUGAUCAUGCUUUUCACCUAAAUAGCAA: 1.22
CCUUUGAAAGAUGUGAAUGUAGAGACAAUUGCAGACCUUUUGGUUUCAUCUGUGUUCUGAAAUAUAAAAUACAACCAAAAUUCUACCUUCAUCCUACCCAGAAAUUAUUG: 0.447
AUGGGUACCCUAUGAUCCCCCUCCCCUUCUCCUCCAGUAAAUACCUGGAAGAGGGAACCUGAAUCCCUGGGGGAGACAGAAGGGGCAGGGGCCACCAGCCUCCCCUUCUU: 0.261
UGAUCCUGGUAAUGCACUUUGGAUGGGAAGAAAAUGUACGUGCUUUUCAGAGGGGCUCUGAACAGAAUGAAAACCUAGUUCUUGCGUGUACUUUGAAGAAUGGAAUUGUA: 3.78

Set 4
Target: CCNF, cyclin fold, Cln2 fusion (human)
Method: yeast growth competition, sequencing
Matrix: yeast
Setting: strong parent motif
Baseline: not given
Direction: higher = stronger binding
Endpoint: normalised enrichment score
Parent: SLBP docking peptide (human); ARYKRKLLINDFG
I9S: 1.85
L7C: 0.381
D11F: 2.34
I9Q: 1.14
R2H: 1.37
F12V: 1.05
G13T: 2.03
D11N: 1.63
D11A: 2.5
L7R: 0.903
R2S: 0.355
R2T: 2.71
A1E: 0.539
I9P: 1.71
K4A: 1.63

Excerpt of the above (set 4):
L7R: 0.903
K4A: 1.63
L7C: 0.381
R2T: 2.71
I9S: 1.85
